{"data": "Measured values from different studies", "note": "Lines come from different studies, so protocols differ. ± gives the spread as reported."}
{"Compound": "CC1=C(CC(=O)O)c2cc(F)ccc2/C1=C\\c1ccc([S+](C)[O-])cc1 (stereo not shown)", "tested on": "MM1.S bortezomib-resistant", "assay": "cell death", "endpoint": "EC50", "result": "> 100 µM"}
{"Compound": "COCCC(=O)Nc1ccc(C2CCCCC2)cc1", "assay": "liver microsome stability", "system": "rat liver microsomes", "conditions": "1 µM", "endpoint": "hepatic clearance", "result": "50 mL/min/kg"}
{"Compound": "Cc1cc(NC(=O)c2cccc(NC(=O)/C=C/CN(C)C)c2)ccc1Nc1nccc(-c2cccnc2)n1", "tested on": "SH-SY5Y MKK7 ACT", "assay": "c-Jun Ser73 phosphorylation, western blot", "conditions": "6 h, added: doxycycline", "endpoint": "EC50", "result": "~0.5 µM"}
{"Compound": "CCn1cc(-c2cc(Cn3ccoc3=N)cc3c2CCN([C@@H](C)c2cc(OC)ccn2)C3=O)c(C(F)(F)F)n1", "tested on": "Li-7", "assay": "cell growth, inhibitor", "conditions": "120 h", "endpoint": "EC50", "result": "0.181 µM"}
{"Compound": "CC[C@H](C)[C@H](NC(=O)[C@H](CCCNC(=N)N)NC(=O)[C@H](CCCNC(=N)N)NC(=O)[C@H](CC(C)C)NC(=O)CNC(=O)[C@H](CCC(N)=O)NC(=O)[C@@H](NC(=O)[C@@H](NC(=O)[C@H](Cc1c[nH]c2ccccc12)NC(=O)[C@@H](NC(=O)[C@H](CCC(=O)O)NC(=O)[C@@H]1CCCN1C(=O)[C@@H](N)CCCNC(=N)N)[C@@H](C)CC)[C@@H](C)CC)[C@@H](C)O)C(=O)NCC(=O)N[C@@H](CC(=O)O)C(=O)N[C@@H](CCC(=O)O)C(=O)N[C@@H](Cc1ccccc1)C(=O)N[C@@H](CC(N)=O)C(=O)N[C@@H](C)C(=O)N[C@@H](Cc1ccc(O)cc1)C(=O)N[C@@H](Cc1ccc(O)cc1)C(=O)N[C@@H](C)C(=O)N[C@@H](CCCNC(=N)N)C(N)=O", "tested on": "Pfeiffer, permeabilized", "assay": "mitochondrial depolarization, BH3 profiling, JC-1", "conditions": "3 h", "endpoint": "EC50", "result": "12 ± 8 µM"}
{"Compound": "C[C@H](Nc1ccc2c(c1)OCCn1cc(N3C(=O)OC[C@H]3C(F)F)nc1-2)C(N)=O", "tested on": "SNU-1076", "assay": "cell growth, CellTiter-Glo", "conditions": "120 h", "endpoint": "EC50", "result": "2.19 µM"}
{"Compound": "COc1cnc2cccc(N3CCc4c(cc(Cn5ccnc5C)cc4-c4cn(C)nc4C(F)(F)F)C3=O)c2c1", "tested on": "KLE", "assay": "cell growth, inhibitor", "conditions": "120 h", "endpoint": "EC50", "result": "0.94 µM"}
{"Compound": "C[C@]12CCCN1CC1=NNC(=O)c3cc(F)cc4[nH]c2c1c34", "tested on": "SW1417 colorectal cancer cells", "assay": "cell viability", "conditions": "concentration not given, added: with temozolomide", "endpoint": "EC50", "result": "> 3 µM"}
{"Compound": "Cc1ccc2c(c1)C(=O)[C@]1(O)CCN(c3ccc4nc(C)ccc4c3)C1=N2", "tested on": "glioblastoma cell lines (human, mouse)", "assay": "cytotoxicity, CellTiter-Glo", "conditions": "120 h", "endpoint": "EC50", "result": "1 to 5 µM"}
{"Compound": "O=C(CC1CCOCC1)Nc1ccc(C2CCCCC2)cc1", "system": "rat liver microsomes", "conditions": "1 µM", "endpoint": "hepatic clearance", "result": "51 mL/min/kg"}
{"Compound": "CC[C@H](C)[C@H](NC(=O)[C@H](CCC(=O)O)NC(=O)[C@H](CC(=O)O)NC(=O)CNC(=O)[C@H](CC(C)C)NC(=O)[C@H](CCCNC(=N)N)NC(=O)[C@H](CCC(N)=O)NC(=O)[C@H](CC(C)C)NC(=O)[C@H](Cc1c[nH]cn1)NC(=O)[C@H](CCC(N)=O)NC(=O)[C@@H](NC(=O)[C@H](CC(C)C)NC(=O)[C@H](Cc1c[nH]c2ccccc12)NC(=O)[C@@H](NC(=O)[C@H](CCC(=O)O)NC(=O)[C@@H]1CCCN1C(=O)[C@@H](N)CCCNC(=N)N)[C@@H](C)CC)[C@@H](C)O)C(=O)N[C@@H](CC(N)=O)C(=O)N[C@@H](C)C(=O)N[C@@H](Cc1ccc(O)cc1)C(=O)N[C@@H](Cc1ccc(O)cc1)C(=O)N[C@@H](C)C(=O)N[C@@H](CCCNC(=N)N)C(N)=O", "tested on": "Pfeiffer, permeabilized", "assay": "mitochondrial depolarization, BH3 profiling, JC-1", "conditions": "3 h", "endpoint": "EC50", "result": "3.1 ± 2.6 µM"}
{"Compound": "[Cl-].[Cl-].[Os+2].c1cnc2c(c1)ccc1cccnc12.c1cnc2c(c1)ccc1cccnc12.c1cnc2c(c1)ccc1cccnc12", "tested on": "SK-MEL-28", "assay": "phototoxicity, resazurin", "conditions": "normoxia, added: green light 523 nm, 100 J/cm2, 20 mW/cm2", "endpoint": "EC50", "result": "86.1 ± 4.2 µM"}
{"Compound": "C=C(NC(=O)C(=C)NC(=O)c1csc(C2=N[C@@H]3c4csc(n4)[C@H]4NC(=O)c5csc(n5)[C@H]([C@](C)(O)[C@@H](C)O)NC(=O)[C@H]5CSC(=N5)/C(=C/C)NC(=O)[C@H]([C@@H](C)O)NC(=O)c5csc(n5)[C@]3(CC2)NC(=O)[C@H](C)NC(=O)C(=C)NC(=O)[C@H](C)NC(=O)[C@H]([C@@H](C)CC)N[C@@H]2C=Cc3c([C@H](C)O)cc(nc3[C@H]2O)C(=O)O[C@@H]4C)n1)C(N)=O", "tested on": "OCI", "assay": "cell viability", "endpoint": "EC50", "result": "0.3 µM"}
